Assay results of several laboratories.
A part holds a random share of what one study measured. Changes are numbered by the printed parent chain.

Sample 1
Target: RNA binding protein fox-1 homolog 2, RRM domain, GST-SBP tag (RBFOX2, Homo sapiens, UniProt O43251-10, residues 100-194)
Method: RNA Bind-n-Seq
Form: RNA
Sample: in vitro
Concentration: 365 nM
Notes: natural RNA segment, single round, ends assumed
Relative to: no-protein control
Reading: higher = stronger binding
Constant ends, left off below: GGGAGUUCUACAGUCCGACGAUC … UGGAAUUCUCGGGUGCCAA
Residues (chain): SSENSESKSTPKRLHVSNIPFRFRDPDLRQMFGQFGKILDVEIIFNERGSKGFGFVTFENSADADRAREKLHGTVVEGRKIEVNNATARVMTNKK
Oligonucleotide	RBNS enrichment (R)
UUAGAUGUUUCGUUCAUUCACUCACUCAUUCAGUUACUCCUAAGACUUUUCAGUUUCAUAAGGAAGAGUGUUGCCUGAGGCCCUAGGGAAUAUUGGGGAAUAGAAGGGAU	0.606
CCUGGUACUAGUGUAGCGACUUUUUUUCUCCUCUUUCUUCUAGUACAUAUUGAUAGGUAUAACAUAAUUAAGGUUUAAAAAAAAUUAGACAUAGUUAUUCAGAUUUAGGA	0.407
UUAUCAAAUCCUUCUCUCCCAAGCCAUUUAAAAACGUUUUUUAAGUGAAAAGUUUGUAUUCUGCCUCUAAAGUUCCUCAACAAAUACUCGAGUUACACAUAUGCAUAUGU	2.09
AGCACCAUUAGCACCACAGAAUUCACCCACUGCCUGUUUUUCCUUUUCCUUUCUCAAACCUACUCAAAUAAAAGGAUGAGGGUUAAGGGCAGGAAGUGGGAGGAUCUAAA	0.689
GACUGGUUUCCAUAUCCCCACCCUACACCAGGGUUCCAUUUGGAAGUAUACCUUGUUUAUCAGUCAGUGUUGCUUAGGUUCUCACUUCUCCAGUCAUUGUAAUGUCUACA	0.299
UUUGGAGAGCUGUUUUAUCUCCAAUGGCUGUGACUCAGUGCAAGGAUUCCACUCAGAACCUCUUUCUAAAGUUUUUGCCUGAUGUGUCUUCACUGGAUUUUGGGGUUCCC	0.768
UGACCAGUUAUAAGACUCGCUUUUCAGUCAUGGAUCCUGCAGAAAUCUGAGACCCACCCAUAUCCUAGCUUUUAACUGUCUUCGCUCCACCCUCAAAGAUGCUACUGGGC	0.481
UCAGGAUGCUCUAAGUUGGAGUCAGCCGGGCUCGUUCAUCACUUCUUCGGUUGCUUUGCACCAGUAUGGUAUGGACAUGGGGUGGACAUUUCCAGGUAAGAGGAUCAGCG	1.04
AUUUGACACCAAUAUGGGCAAAAUUAGAUAACCUUUUGGUUAAUAUAAAUGAUUUUGAUUUGGAGGCCUAAUUUGUAGAUUGUGAAAGCAGCUUUUAGUUUAACUUAUUC	0.919
UUUCUGCCCAGCCCAUCUUGCCUGCAUGGUGCCUCUGGGUCUUUAAAGGAGGGUGGUAGGUACCAAGAACCAGUGGAGGGGACCCUGAGCUGGCAAGAGUAAGCCCCAUC	3.44
CCCACAGUGGGUUUGGCUGAUUGUAGCCCUGGGCUGUUUUGCCAUGGAACUCUCCAGUGUUCCUAUAAAAUAGUAGUUCCAGCUAAAUAAACCUACUGUACUCAGUGCUU	0.281
AGUAGGGGGACCAUUGGGGACAUCACAGAAGCCACUGUCCAGAUGGGGCUCAGGCCAGUGGGUGUGGGAUGGGCCAUCUGCAGGAUAGACCUGGCAAGUCCCCUCUGAUA	1.21

Sample 2
Target: ABI1, truncated, D143A, DHFR fusion (Arabidopsis thaliana)
Method: DHFR PCA, deep sequencing
Sample: yeast
Notes: methotrexate growth selection, single substitutions
Together with: (+)-ABA 4.8 µM
Relative to: wild-type fitted maximum
Reading: higher = stronger binding
Starting sequence: PYL1, truncated, DHFR fusion (Arabidopsis thaliana); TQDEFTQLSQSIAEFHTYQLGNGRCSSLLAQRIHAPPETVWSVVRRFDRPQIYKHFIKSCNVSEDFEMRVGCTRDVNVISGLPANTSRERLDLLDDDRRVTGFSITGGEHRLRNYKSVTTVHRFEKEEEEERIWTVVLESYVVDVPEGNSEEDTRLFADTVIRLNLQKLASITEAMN
Change	relative binding score [%]
L28R	28
E128M	67
H122V	4.21
R163G	37.6
E67K	70.4
C25H	-2.78
A170F	0.662
T6L	69.7
C60N	-5.39
R46C	49.1
F103G	-6.12

Sample 3
Target: Histone acetyltransferase KAT6A, winged helix 2, GST fusion (KAT6A, Homo sapiens, UniProt Q92794, residues 85-181)
Method: protein binding microarray
Form: double-stranded DNA, one strand shown
Sample: in vitro
Concentration: not given
Notes: 8-mer, flanks averaged, mean of 2 arrays, mostly near background
Relative to: not given
Reading: higher = stronger binding
Construct (chain): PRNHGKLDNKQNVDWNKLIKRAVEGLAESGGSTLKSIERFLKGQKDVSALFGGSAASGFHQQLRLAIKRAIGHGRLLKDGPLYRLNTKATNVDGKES
Oligonucleotide	E-score
ATGCTATA	0.00739
ACCACGCC	-0.0639
AACGAGTA	-0.13
CAGGGTCC	0.00736
CCCGGACC	0.0817
AGAGTCCC	-0.175
CCTGCGCG	0.205
CGGAAGTA	-0.119
ATGTACTG	-0.115
ATTCATTG	0.00867
GCGCCCAA	0.211
AAGTGTCA	-0.166
AACAACTG	-0.0822
ACGCGGTC	0.125
ATCGCGGA	0.0634
CGACTTAG	-0.00808
ACTCCGTA	-0.206
ATCACATA	0.0396
CCACTGGC	0.203
GGGAACCA	-0.115
CCTGGGTA	0.00587
CTTTGTTA	0.0659
CCAAAGCA	0.149
GTGGAGGA	0.014
ACGGCACT	0.069

Sample 4
Target: CCNE1, cyclin fold, Cln2 fusion (human)
Method: yeast growth competition, sequencing
Sample: yeast
Notes: strong parent motif
Relative to: not given
Reading: higher = stronger binding
Starting sequence: CDKN1A docking peptide (human); SKACRRLFGPVDS
Change	normalised enrichment score
R6K	4.8
R6E	1.92
R6W	2
F8R	-0.013
R6C	3.19
G9D	5.89
P10M	3.86
C4I	2.78
D12G	4.6
S1A	4.93
F8Y	0.939
C4R	5.86
K2D	4.92
V11W	5.72
G9F	5.86
K2F	3.86
A3Q	0.209

Sample 5
Target: MAFK, bZIP domain (human)
Method: DHFR protein complementation
Sample: yeast
Notes: single substitutions, most at no-binding floor
Relative to: wild-type JUN-FOS pair
Reading: higher = stronger binding
Starting sequence: JUN, bZIP domain (human); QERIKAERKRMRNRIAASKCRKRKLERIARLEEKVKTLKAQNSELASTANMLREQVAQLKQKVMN; partner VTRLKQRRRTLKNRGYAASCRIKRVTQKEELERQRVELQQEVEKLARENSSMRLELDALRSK
Change	binding fitness [natural log]
Q55W	-1.54
A46M	-1.42
Q55L	-1.45
L52Q	-1.51
Q58H	-1.41
Q55T	-1.5
Q55Y	-1.55
L52G	-1.48
S47W	-1.52
R30Q	-1.46
S47T	-1.41
K39P	-1.5
K34T	-1.53
E32P	-1.57

Sample 6
Target: Interferon regulatory factor 7, full length, phosphomimetic (IRF7, Homo sapiens, UniProt Q92985, residues 1-503, S471D/S472D/S475D/S476D/S477D/S483D/S484D/S487D)
UniProt Q92985, sequence (whole entry, unmodified, looked up): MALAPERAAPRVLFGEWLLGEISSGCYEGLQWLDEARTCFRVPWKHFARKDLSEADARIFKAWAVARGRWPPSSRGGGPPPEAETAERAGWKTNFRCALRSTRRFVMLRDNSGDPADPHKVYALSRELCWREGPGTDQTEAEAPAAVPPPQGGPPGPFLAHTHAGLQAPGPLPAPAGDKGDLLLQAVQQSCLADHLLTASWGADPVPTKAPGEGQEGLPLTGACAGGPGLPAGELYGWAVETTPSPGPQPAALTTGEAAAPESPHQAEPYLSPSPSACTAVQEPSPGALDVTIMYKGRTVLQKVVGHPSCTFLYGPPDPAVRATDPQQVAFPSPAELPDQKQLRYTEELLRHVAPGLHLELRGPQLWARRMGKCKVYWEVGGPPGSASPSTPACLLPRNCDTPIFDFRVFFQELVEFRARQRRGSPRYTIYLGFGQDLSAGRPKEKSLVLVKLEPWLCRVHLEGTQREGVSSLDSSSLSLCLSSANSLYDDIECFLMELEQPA
Method: protein-binding microarray
Form: double-stranded DNA, one strand shown
Sample: in vitro
Concentration: 2200 nM top
Notes: 60-bp whole probe
Together with: salmon DNA 0.4 mg/ml
Relative to: random background probes
Reading: higher = stronger binding
Constant ends, left off below: GCCTAGCAC … GTCTTGATTCGCTTGACGCTGCTG
Oligonucleotide	fitted relative affinity [z-score]
ATAGAACTGAGACTGGATTAGTGCTAG	-0.447
TTAGGTTACGACACTGGGTTAGTGCTA	-0.17
CTGTACTTGAATTCTGCAAAGTGCTAG	0.668
TTAGGACAGGGTATCGGTTAGTGCTAG	-0.28
GACGGTATCCTTACCCTGACGTGCTAG	0.649
CTTGATTTTGGTCTTTCTGTGTGCTAG	1.5
TTAGAACTGAGTTTCGAATAGTGCTAG	0.704
TTAAAACTGGGGACTGGATTAGTGCTA	-0.486
GACGGTTTCGGTTGCGGGACGTGCTAG	7.73
TTAGAACTGGGGACTGGCTTAGTGCTA	-0.687
TCATTTCTACTGTCTGTTACTGTGCTA	2.13
TTAGCTTTCGACTATCGGTTAGTGCTA	3.8
TTAGGACTGGGGTACCGGTTAGTGCTA	-0.889
AACGGTTTCCTTCTCCTGACGTGCTAG	2.92
TCATTCTTGCATCTGGGACTGTGCTAG	1.36
GACGGACTGGACTTCCGGGACGTGCTA	-0.461
ACTAATTTTCATTTTCCAAAGTGCTAG	5.17
GACGATTTCGGGACTGGAGATGTGCTA	1.37
GACGATCTCGGTATCGGGACGTGCTAG	0.101
TTCGGACTGGGTATCGGTTAGTGCTAG	0.0678
GACCGTATCGGTTTCGGGACGTGCTAG	4.1
GACGAATTCAGTTTCGAGACGTGCTAG	3.81
TTAGGACTGGTCACTGGGTTAGTGCTA	-0.692
TTAGAACTGAGTACCGATTAGTGCTAG	-0.255
TTCGGTTTCGGACTGGGTTAGTGCTAG	5.97

Sample 7
Target: Sal-like protein 4, full length isoform B (SALL4, Homo sapiens, UniProt Q9UJQ4-2, residues 1-616)
Method: universal PBM
Form: double-stranded DNA, one strand shown
Sample: in vitro
Concentration: not given
Notes: 8-mer, flanks averaged, mean of replicates
Reading: higher = stronger binding
Construct (chain): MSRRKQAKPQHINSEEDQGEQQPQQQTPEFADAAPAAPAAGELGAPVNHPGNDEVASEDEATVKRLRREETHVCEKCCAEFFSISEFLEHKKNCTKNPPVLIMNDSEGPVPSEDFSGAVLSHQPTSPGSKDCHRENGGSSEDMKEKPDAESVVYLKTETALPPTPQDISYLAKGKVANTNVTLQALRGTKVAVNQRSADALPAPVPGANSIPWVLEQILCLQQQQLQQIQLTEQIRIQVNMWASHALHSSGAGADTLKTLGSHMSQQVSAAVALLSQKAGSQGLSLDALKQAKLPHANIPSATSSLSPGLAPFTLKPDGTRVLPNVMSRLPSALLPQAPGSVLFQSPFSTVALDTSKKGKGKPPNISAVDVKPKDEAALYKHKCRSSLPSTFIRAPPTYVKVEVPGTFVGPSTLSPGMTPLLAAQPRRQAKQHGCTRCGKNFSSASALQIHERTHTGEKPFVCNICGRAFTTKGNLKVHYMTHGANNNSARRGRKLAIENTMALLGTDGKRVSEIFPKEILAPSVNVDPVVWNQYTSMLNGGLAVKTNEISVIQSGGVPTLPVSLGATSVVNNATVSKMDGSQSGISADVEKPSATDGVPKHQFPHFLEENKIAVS
Oligonucleotide	E-score
ACGCATCT	-0.0467
ATGTATTC	0.128
CCTTATCA	0.198
GACATCTC	-0.0393
CGTACGAG	-0.0912
CGTATGGC	0.12
GGTGTGAA	0.141
AGCCAATA	0.165
ATTACTAA	0.337
AGTTGGTA	0.179
AGCGCCTG	-0.277
GTCGTTGA	-0.0243
ACGTCGTC	-0.0358
ACGGCGTA	0.0455
CCAATGAC	0.0287
ATAAAGTC	0.221
CGGTGCCC	-0.407
GCCACCAA	-0.0559
AGGGCAAG	-0.0835
GCGAAACC	-0.131
CAGATTTA	0.205
CGCTAATC	-0.0643

A few entries again (sample 7):
Oligonucleotide	E-score
CGTATGGC	0.12
GGTGTGAA	0.141
AGCCAATA	0.165
ATTACTAA	0.337
AGTTGGTA	0.179
AGCGCCTG	-0.277
GTCGTTGA	-0.0243
ACGTCGTC	-0.0358
ACGGCGTA	0.0455
CCAATGAC	0.0287
ATAAAGTC	0.221
CGGTGCCC	-0.407
GCCACCAA	-0.0559
AGGGCAAG	-0.0835
